Assay results from different studies.
Compare with care: the assays were run in different laboratories. “And” joins repeats or separate records; there may be more than shown.

The solubility of `O=C([O-])CN1CCNCCNCCN(C(C(=O)[O-])c2ccc(C(=O)O)cc2)CC1.[Mn+2]` (stereo not shown) is reported as 540 mg/mL (water).
`OC(CN1CCC2(CC1)CC(O)c1ccc3ccccc3c1O2)c1ccc(F)c(F)c1` (stereo not shown) has a solubility of 57.1 µM (aqueous buffer; pH 7.4).
`CC(=O)c1c(O)c(C)c(O)c2c1OC1=CC(=O)/C3=C(/C)N[C@H](C(=O)O)CC1=CC=C(O)C=C[C@@]2(C)C3=O` gave a solubility of 1920 µM (HPLC; water; 24 h, 25 °C).
The solubility of `O=C(NCCN1CCOCC1)c1cc2c3ccccc3n3c(=O)ccc(n1)c23` is reported as 0.0929 mg/mL (absorbance; water; 2 h).
`O=C1c2ccccc2C2(c3ccc(O)cc3Oc3cc(O)ccc32)N1CCS(=O)(=O)O` gave a solubility of 10.9 mg/mL (HPLC; water; 24 h, 25 °C).
`Nc1ccc(-c2ccc3ncc4c(=O)[nH]c(=O)n(-c5cccc(C(F)(F)F)c5)c4c3n2)cn1` gave a solubility of less than 0.001 mg/mL (aqueous buffer; pH 7).
`C[n+]1cc(C(=O)NCc2cccc(CNC(=O)c3cc4ccccc4[n+](C)c3)c2)cc2ccccc21` has a solubility of 230 µM (aqueous buffer; pH 7.4).
The solubility of `CCS(=O)(=O)c1ccccc1C(=O)N1CCN(c2nc3ccc(F)cc3s2)C[C@@H]1C` is reported as 139 µM (PBS; pH 7.4).
For `C[C@@]1(C(=O)O)CC/C=C/[C@H](OC(=O)Nc2ccn([C@@H]3O[C@H](CO)[C@@H](O)C3(F)F)c(=O)n2)CC1`, the solubility was 3 mg/mL (PBS).
`CC1(C)CNC(=O)c2ccccc21` gave a solubility of greater than 400 µM (aqueous buffer; pH 7.4).
`CC12N3Cc4c(c(OCCCS(=O)(=O)[O-])c5ccccc5c4OCCCS(=O)(=O)[O-])CN1C(=O)N1CN4C(=O)N5CN6C(=O)N7Cc8c(c(OCCCS(=O)(=O)[O-])c9ccccc9c8OCCCS(=O)(=O)[O-])CN8C(=O)N(CN9C(=O)N(CN(C3=O)C12C)C4C95)C6(C)C87C.[Na+].[Na+].[Na+].[Na+]` (stereo not shown) has a solubility of > 300000 µM and 336000 µM (NMR; aqueous buffer).
`CC(C)c1ccc(C(=O)Nc2ccc(CN)cc2)c(O)c1` has a solubility of 47 µM (PBS; pH 7.4).
For `COc1cc(Cc2cnc(N)nc2N)cc(OC)c1OC.O=c1[nH]cc(F)c(=O)[nH]1`, the solubility was 3.09 mg/mL (shake flask; aqueous buffer).
The solubility of `C[N+](C)(C)CCO.O=C([O-])[C@@H](O)Cc1ccccc1` is reported as 1380 mg/mL (water).
`COc1ccc(-c2ccc3oc(-c4ccc(OC)cc4)c(C#CC4(O)CCCCC4)c3c2)cc1` has a solubility of less than 0.001 mg/mL (aqueous buffer).
`O=C(Nc1ccccc1O)c1ccc(-c2ccc(Cl)cc2Cl)o1` has a solubility of less than 5 µM (aqueous buffer; pH 6.5).
With `CCn1cc(C(=O)NCCNCCO)c(=O)c2cc(OCc3ccc(C(F)(F)F)cc3)c(C(F)(F)F)cc21` the solubility was 10 µM (shake flask; PBS; 24 h, pH 6.5, 25 °C).
`COc1ccc(C(=O)n2c(C)c(Cc3ccccc3O[C@@H](C)C(=O)O)c3cc(OC(F)(F)F)ccc32)cc1` has a solubility of 30 µM (aqueous buffer; pH 7.4).
For `CC(C)CCCC(C)CCCC(C)CCOC1O[C@H](CO)[C@@H](O)[C@H](O)[C@H]1O` (stereo partly shown), the solubility was 33.6 µM (water).

Excerpt of the above:
The solubility of `O=C(NCCN1CCOCC1)c1cc2c3ccccc3n3c(=O)ccc(n1)c23` is reported as 0.0929 mg/mL (absorbance; water; 2 h).
`CC(=O)c1c(O)c(C)c(O)c2c1OC1=CC(=O)/C3=C(/C)N[C@H](C(=O)O)CC1=CC=C(O)C=C[C@@]2(C)C3=O` gave a solubility of 1920 µM (HPLC; water; 24 h, 25 °C).
For `CC(C)CCCC(C)CCCC(C)CCOC1O[C@H](CO)[C@@H](O)[C@H](O)[C@H]1O` (stereo partly shown), the solubility was 33.6 µM (water).
